Experimental data from different studies.
Lines come from different studies, so protocols differ. Numbers after ± are the reported error.
Organism: Staphylococcus aureus

For `CCn1cc(C(=O)NCCNCCO)c(=O)c2cc(OCc3ccc(C(C)(C)C)cc3)c(Cl)cc21`, the MIC was under 0.25 µg/mL (ATCC 43300 MRSA; ≥80% growth inhibition).
The MIC of `COCO[C@H]1[C@H](O)[C@@H](N)[C@@H](O[C@H]2[C@H](O[C@@H]3O[C@H](CO)[C@@H](O[C@H]4O[C@@H](CN)[C@@H](O)[C@H](O)[C@H]4N)[C@H]3O)[C@@H](O)[C@H](N)C[C@@H]2N)O[C@@H]1CO` is reported as 32 µg/mL (broth microdilution; MRSA isolate AG 045).
`C=C(NC(=O)C(=C)NC(=O)c1csc(C2=NC3c4csc(n4)C4NC(=O)c5csc(n5)C(C(C)(O)C(C)O)NC(=O)C5CSC(=N5)C(=CC)NC(=O)C(C(C)O)NC(=O)c5csc(n5)C3(CC2)NC(=O)C(C)NC(=O)C(=C)NC(=O)C(Cc2ccc(O)cc2)NC(=O)C(C(C)CC)NC2C=Cc3c(C(C)O)cc(nc3C2O)C(=O)OC4C)n1)C(N)=O` (stereo not drawn) has an MIC of 0.22 µg/mL (broth microdilution; ATCC 10537 MRSA; 18 h, 37 °C).
The MIC of `CCn1cc(/C=C/c2sc3ccccc3[n+]2CC)c2ccccc21` is reported as 1 ± 0.005 µg/mL (1466, Mueller-Hinton broth).
`CCCCCCCCCCCc1nc2ccccc2c(=O)n1N` gave an MIC of over 100 µM (broth microdilution; RN6390B).
With `COC1CCN(Cc2cc(N(C)C)c3c(c2O)C(=O)C2=C(O)[C@]4(O)C(=O)C(C(N)=O)=C(O)[C@@H](N(C)C)[C@@H]4C[C@@H]2C3)CC1` the MIC was 1 µg/mL (RN4250, Tet K efflux).
`CCCCCCCCCCN1C(=O)/C(=N\NC(N)=S)c2cc(C)ccc21` has an MIC of over 192 µg/mL (microbial growth, broth dilution; 18 h).
`CC(C)CNCc1cc(N(C)C)c2c(c1O)C(=O)C1=C(O)[C@]3(O)C(=O)C(C(N)=O)=C(O)[C@@H](N(C)C)[C@@H]3C[C@@H]1C2` has an MIC of 1 µg/mL (microbial growth; MRSA).
`CNC(CC(C)C)C(=O)NC1C(=O)NC(CC(N)=O)C(=O)NC2C(=O)NC3C(=O)NC(C(=O)NC(C(=O)O)c4cc(O)cc(O)c4-c4cc3ccc4O)C(O)c3ccc(c(Cl)c3)Oc3cc2cc(c3OC2OC(CO)C(O)C(O)C2OC2CC(C)(NC(=O)CCCC[N+](C)(C)Cc3ccccc3)C(O)C(C)O2)Oc2ccc(cc2Cl)C1O` (stereo not drawn) has an MIC of 512 µg/mL (agar dilution; MRSA clinical isolate MRSA3).
The MIC of `CCCCOC1C(C)C2C(C=CC3C(C)C=CC=CC(C)OC(=O)C(C)C(=O)C(Cl)(Cl)C(=O)C32)CC1(C)O` (stereo not drawn) is reported as 1.6 µg/mL (microbial growth, broth dilution; NEWMAN).
`Cc1cc(/C=C2\Sc3ccccc3N2CCCN2CCCC2)c2ccccc2[n+]1C` gave an MIC of 32 µg/mL (microbial growth, broth dilution; ATCCBAA1720 MRSA).
For `COc1cc(Cc2cnc(N)nc2N)cc(/C=C/C(=O)N2N=Cc3ccccc3C2C=C(C)C)c1OC` (stereo not drawn), the MIC was 0.125 µg/mL (microbial growth, broth dilution; ATCC29213).
`O=C1OCC(NCCc2ccc(Cl)cc2)N1/N=C/c1ccc([N+](=O)[O-])o1` (stereo not drawn) has an MIC of 3.12 µg/mL (microbial growth, broth dilution; ATCC29213; 18 h).
`CN(Cc1cc(N(C)C)c2c(c1O)C(=O)C1=C(O)[C@]3(O)C(=O)C(C(N)=O)=C(O)[C@@H](N(C)C)[C@@H]3C[C@@H]1C2)CC(C)(C)C` gave an MIC of 0.5 µg/mL (RN4250, Tet K efflux).
The MIC of `CC(=O)[O][Ag]=[c]1n(C)ccn1CC(O)c1ccccc1` (stereo not drawn) is reported as 5 µg/mL (broth dilution; ATCC 23235; 18 h, 37 °C).

Some of these lines once more:
The MIC of `COCO[C@H]1[C@H](O)[C@@H](N)[C@@H](O[C@H]2[C@H](O[C@@H]3O[C@H](CO)[C@@H](O[C@H]4O[C@@H](CN)[C@@H](O)[C@H](O)[C@H]4N)[C@H]3O)[C@@H](O)[C@H](N)C[C@@H]2N)O[C@@H]1CO` is reported as 32 µg/mL (broth microdilution; MRSA isolate AG 045).
`CC(C)CNCc1cc(N(C)C)c2c(c1O)C(=O)C1=C(O)[C@]3(O)C(=O)C(C(N)=O)=C(O)[C@@H](N(C)C)[C@@H]3C[C@@H]1C2` has an MIC of 1 µg/mL (microbial growth; MRSA).
